Published values pooled from the literature.
“And” joins repeats or separate records; there may be more than shown. Numbers after ± are the reported error.
lasR: Transcriptional activator protein LasR (lasR, Pseudomonas aeruginosa, UniProt P25084)
Oprm1: Mu-type opioid receptor (Oprm1, Rattus norvegicus, UniProt P33535)
UniProt P33535, sequence (whole entry, looked up): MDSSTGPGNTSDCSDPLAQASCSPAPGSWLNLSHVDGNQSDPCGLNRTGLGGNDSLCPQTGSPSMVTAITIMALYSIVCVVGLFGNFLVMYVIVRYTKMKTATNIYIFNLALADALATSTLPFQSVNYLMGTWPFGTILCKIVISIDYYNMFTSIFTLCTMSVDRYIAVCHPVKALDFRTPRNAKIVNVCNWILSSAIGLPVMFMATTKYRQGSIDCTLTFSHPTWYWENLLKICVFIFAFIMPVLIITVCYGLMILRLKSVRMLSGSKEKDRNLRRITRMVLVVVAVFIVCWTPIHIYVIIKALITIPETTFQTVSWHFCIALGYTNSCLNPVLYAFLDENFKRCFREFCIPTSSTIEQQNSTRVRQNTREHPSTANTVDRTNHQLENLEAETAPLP
sdiA: Regulatory protein SdiA (sdiA, Escherichia coli, UniProt P07026)
UniProt P07026, sequence (whole entry, looked up): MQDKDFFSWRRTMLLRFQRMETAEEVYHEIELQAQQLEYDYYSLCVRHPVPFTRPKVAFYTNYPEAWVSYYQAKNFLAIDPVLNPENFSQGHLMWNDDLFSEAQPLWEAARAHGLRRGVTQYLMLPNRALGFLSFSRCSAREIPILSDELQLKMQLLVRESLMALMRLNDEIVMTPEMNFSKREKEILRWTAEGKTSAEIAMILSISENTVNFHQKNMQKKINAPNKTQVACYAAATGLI
Uncharacterized hydrolase SAUSA300_2518: Uncharacterized hydrolase SAUSA300_2518 (Staphylococcus aureus, UniProt Q2FDS6)
KEAP1: Kelch-like ECH-associated protein 1 (KEAP1, Homo sapiens, UniProt Q14145)
UniProt Q91ZH7, sequence (whole entry, looked up): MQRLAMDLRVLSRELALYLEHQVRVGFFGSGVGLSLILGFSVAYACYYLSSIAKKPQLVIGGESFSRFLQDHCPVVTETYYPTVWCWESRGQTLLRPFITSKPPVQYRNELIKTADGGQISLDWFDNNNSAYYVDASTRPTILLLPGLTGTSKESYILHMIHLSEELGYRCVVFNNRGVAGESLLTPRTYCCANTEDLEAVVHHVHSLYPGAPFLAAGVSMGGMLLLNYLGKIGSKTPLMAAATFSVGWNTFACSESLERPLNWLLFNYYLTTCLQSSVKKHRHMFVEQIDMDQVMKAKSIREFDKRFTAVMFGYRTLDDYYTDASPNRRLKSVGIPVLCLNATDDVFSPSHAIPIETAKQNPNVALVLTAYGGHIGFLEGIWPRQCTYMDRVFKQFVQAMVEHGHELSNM
UniProt Q14145, sequence (whole entry, looked up): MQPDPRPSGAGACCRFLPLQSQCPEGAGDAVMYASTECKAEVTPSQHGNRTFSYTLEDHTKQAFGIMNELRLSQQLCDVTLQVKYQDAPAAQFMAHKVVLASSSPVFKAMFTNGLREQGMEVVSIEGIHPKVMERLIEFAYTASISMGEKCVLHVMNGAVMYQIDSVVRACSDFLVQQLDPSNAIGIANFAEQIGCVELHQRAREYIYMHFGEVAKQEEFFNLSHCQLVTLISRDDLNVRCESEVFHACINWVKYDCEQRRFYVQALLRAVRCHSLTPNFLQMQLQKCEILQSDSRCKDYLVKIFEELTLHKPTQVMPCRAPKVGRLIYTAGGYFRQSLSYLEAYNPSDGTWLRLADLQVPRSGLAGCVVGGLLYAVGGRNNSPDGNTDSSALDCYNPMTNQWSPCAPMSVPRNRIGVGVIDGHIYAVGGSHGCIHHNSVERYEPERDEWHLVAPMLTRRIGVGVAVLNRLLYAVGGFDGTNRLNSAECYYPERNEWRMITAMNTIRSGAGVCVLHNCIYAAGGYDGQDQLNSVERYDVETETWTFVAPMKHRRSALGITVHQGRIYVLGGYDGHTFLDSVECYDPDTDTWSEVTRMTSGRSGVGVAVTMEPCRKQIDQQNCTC
UniProt P05771, sequence (whole entry, looked up): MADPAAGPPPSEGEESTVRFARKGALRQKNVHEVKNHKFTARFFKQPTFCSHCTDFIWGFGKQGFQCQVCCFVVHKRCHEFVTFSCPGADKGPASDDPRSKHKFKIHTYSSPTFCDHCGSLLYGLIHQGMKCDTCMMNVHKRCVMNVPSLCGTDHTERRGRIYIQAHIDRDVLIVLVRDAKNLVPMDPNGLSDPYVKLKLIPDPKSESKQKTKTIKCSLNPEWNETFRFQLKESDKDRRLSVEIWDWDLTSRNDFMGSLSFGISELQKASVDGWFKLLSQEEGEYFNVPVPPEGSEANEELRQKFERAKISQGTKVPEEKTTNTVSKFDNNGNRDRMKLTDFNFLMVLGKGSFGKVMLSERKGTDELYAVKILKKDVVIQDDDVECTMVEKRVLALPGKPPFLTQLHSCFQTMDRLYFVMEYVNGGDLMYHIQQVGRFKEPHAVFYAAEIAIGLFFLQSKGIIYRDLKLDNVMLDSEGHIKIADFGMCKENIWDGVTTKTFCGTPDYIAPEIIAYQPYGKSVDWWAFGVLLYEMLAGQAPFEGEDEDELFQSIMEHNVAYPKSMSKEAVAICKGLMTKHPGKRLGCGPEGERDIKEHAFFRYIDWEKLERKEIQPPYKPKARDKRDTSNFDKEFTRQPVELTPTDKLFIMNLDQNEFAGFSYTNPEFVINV
UniProt A5GZW8, sequence (whole entry, looked up): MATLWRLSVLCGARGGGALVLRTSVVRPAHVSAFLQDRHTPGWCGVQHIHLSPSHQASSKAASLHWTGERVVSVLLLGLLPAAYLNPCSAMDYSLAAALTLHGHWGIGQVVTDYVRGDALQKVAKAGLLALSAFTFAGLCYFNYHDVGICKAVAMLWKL
UniProt Q9Y2J8, sequence (whole entry, looked up): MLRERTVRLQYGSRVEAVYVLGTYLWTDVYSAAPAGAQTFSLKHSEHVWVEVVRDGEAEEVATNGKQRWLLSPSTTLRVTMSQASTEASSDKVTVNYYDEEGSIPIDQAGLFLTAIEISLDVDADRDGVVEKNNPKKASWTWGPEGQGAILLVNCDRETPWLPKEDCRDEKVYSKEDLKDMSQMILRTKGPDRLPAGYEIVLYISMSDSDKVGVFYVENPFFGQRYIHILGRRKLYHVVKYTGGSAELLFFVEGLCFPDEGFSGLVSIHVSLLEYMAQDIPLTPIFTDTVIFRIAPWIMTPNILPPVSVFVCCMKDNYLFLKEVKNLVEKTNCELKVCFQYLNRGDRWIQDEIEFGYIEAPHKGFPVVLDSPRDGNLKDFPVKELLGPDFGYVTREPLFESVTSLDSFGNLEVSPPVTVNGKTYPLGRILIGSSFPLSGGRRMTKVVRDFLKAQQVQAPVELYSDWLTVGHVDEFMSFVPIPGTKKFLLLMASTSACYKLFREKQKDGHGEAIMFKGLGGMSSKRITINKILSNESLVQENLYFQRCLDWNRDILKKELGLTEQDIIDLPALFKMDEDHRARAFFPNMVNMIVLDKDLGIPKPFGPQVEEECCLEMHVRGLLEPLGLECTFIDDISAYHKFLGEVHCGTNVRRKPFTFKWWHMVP
UniProt Q007T0, sequence (whole entry, looked up): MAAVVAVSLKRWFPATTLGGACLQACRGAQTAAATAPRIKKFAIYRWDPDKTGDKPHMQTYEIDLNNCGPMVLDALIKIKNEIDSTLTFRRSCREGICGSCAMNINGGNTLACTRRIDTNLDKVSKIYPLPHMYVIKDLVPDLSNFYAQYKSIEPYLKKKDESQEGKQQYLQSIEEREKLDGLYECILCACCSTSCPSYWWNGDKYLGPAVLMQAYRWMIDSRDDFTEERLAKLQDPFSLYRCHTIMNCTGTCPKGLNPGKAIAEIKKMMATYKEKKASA
UniProt D0VWV4, sequence (whole entry, looked up): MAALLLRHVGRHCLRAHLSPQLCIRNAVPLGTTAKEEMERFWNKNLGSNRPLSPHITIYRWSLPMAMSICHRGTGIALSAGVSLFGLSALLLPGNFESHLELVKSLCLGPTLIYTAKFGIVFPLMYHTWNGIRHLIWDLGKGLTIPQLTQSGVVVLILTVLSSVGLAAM
UniProt Q13422, sequence (whole entry, looked up): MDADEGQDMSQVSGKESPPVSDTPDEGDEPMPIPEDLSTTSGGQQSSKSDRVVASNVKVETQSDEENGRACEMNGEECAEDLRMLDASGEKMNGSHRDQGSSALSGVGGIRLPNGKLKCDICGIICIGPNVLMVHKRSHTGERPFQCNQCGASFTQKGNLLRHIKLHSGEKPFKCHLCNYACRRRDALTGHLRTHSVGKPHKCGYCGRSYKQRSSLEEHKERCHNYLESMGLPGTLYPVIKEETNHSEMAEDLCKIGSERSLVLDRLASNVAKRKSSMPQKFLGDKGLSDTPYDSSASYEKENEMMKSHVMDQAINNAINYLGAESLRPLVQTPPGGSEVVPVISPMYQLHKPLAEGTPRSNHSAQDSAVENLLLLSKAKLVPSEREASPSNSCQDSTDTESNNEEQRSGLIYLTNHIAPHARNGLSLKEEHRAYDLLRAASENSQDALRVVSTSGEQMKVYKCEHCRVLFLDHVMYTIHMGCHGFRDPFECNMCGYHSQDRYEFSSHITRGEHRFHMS
UniProt Q6PIU2, sequence (whole entry, looked up): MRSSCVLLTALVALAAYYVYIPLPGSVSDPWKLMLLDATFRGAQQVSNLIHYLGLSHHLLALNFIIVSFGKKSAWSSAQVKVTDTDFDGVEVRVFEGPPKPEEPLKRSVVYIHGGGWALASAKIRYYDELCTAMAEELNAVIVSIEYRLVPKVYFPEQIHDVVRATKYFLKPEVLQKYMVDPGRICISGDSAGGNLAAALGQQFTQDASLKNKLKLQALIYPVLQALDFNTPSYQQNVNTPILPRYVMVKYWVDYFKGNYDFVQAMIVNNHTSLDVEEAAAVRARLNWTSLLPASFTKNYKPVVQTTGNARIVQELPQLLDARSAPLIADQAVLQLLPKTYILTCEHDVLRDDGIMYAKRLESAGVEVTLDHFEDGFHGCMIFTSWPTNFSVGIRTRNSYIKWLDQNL
UniProt Q00526, sequence (whole entry, looked up): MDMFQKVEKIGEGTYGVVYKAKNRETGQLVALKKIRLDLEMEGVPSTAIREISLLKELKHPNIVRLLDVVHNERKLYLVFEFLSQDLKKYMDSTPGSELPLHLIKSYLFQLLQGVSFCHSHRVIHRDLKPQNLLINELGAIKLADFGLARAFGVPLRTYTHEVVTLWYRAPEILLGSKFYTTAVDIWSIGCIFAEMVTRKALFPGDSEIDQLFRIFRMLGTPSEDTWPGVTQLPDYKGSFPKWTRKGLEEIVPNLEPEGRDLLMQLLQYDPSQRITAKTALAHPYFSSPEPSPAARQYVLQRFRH

CCOC(=O)[C@@H]1Cc2c(cc([N+](=O)[O-])cc2[N+](=O)[O-])[C@H](O)[C@]12C(=O)Nc1ccc(Br)cc12  remaining binding (DYRK1B (Homo sapiens, UniProt Q9Y463); binding, competition with immobilised ligand; 0.1 µM): 99%
COc1ccccc1-c1n[nH]c2nc(N[C@H]3CC[C@H](NS(=O)(=O)CC(C)C)CC3)ncc12  remaining binding (cdc2-related kinase 12 (Leishmania donovani, UniProt A0A3S7WQK2); kinobead competition pull-down; Leishmania donovani, cell extract; 0.016 µM, unit not given; reference: vehicle): 0.11
O=C1NC(=O)c2c1c1cc(F)c[n+]3c1c1c2c2cc(O)ccc2[n]1[Ru-4]312([N]=C=S)[S+]3CC[S+]1CC[S+]2CC3 (stereo not shown)  remaining activity (Protein kinase C beta type, isoform beta-II (PRKCB, Homo sapiens, UniProt P05771); enzyme activity; 100 nM, human enzyme, together with: 10 µM ATP; reference: untreated): 76%
CCCC(=O)CC(=O)N[C@H]1CCOC1=O  agonist activity (lasR; reporter gene, agonist; Escherichia coli JLD271; 10 µM, pSC11 and pJN105L plasmids; reference: OdDHL at same concentration): -4%
Cc1cc(C)cc(COc2cc3c(cc2OCc2cc(C)cc(C)c2)C2CC(O)(Cc4cn(CCOCCOCCOCCNc5ccc6c(c5)C(=O)N(C5CCC(=O)NC5=O)C6=O)nn4)CC(C)N2CC3)c1 (racemic)  degradation (Rab GDP dissociation inhibitor beta (Homo sapiens, UniProt P50395); degrader, Western blot; PC-3; 2 µM, 24 h): 8%
CCCO[C@H]1[C@H](O)[C@@H](N)[C@@H](O[C@H]2[C@H](O[C@@H]3O[C@H](CO)[C@@H](O[C@H]4O[C@@H](CN)[C@@H](O)[C@H](O)[C@H]4N)[C@H]3O)[C@@H](O)[C@H](N)C[C@@H]2N)O[C@@H]1CO  specific binding (ADRA2A (Homo sapiens, UniProt P08913); radioligand binding; 10 µM, 1% DMSO): 7%
CCC(C)C1CN(C(CC2CCCCC2)CN2CCCC2CN2CCNCC2CO)CCN1CCCC1CCCC1 (stereo not shown)  remaining binding (Oprm1; radioligand binding; rat brain membranes; 500 nM, pH 7.5, 25 °C, together with: 0.87 nM [3H]DAMGO): 105 ± 6.16%
O=C(Cc1cccc(Br)c1)N[C@H]1CCOC1=O  Emax (sdiA): 115%
O=C(CCCOc1cccc(Br)c1)N[C@H]1CCSC1=O  agonist activity (lasR; reporter gene, agonist; Escherichia coli JLD271; 10 µM, pSC11 and pJN105L plasmids; reference: OdDHL at same concentration): 88%
[CH3][Ti+2][O]C(=O)c1ccc([S][Au][PH](c2ccccc2)(c2ccccc2)c2ccccc2)cc1.c1cc[cH-]c1.c1cc[cH-]c1  remaining activity (Protein kinase C beta type, isoform beta-I (PRKCB, Homo sapiens, UniProt P05771); kinase activity; 1 µM, together with: ATP 10 µM): 92.9% and 93.4%
CC(C)CC(O)(CC(C)C)c1cn(C(=O)N2CCCC2)nn1  activity ratio-of-ratios (Phospholipase ABHD3 (Abhd3, Mus musculus, UniProt Q91ZH7); probe labelling, inhibitor, refers to: Abhd3; mouse, brain; i.p., 0.8 mg/kg, 4 h, single peptide; reference: treated over vehicle mice, lower = stronger inhibition): 0.52 and 0.6 and 0.59 and 0.63 and 0.67
CS(C)(=O)=Nc1ccc(-c2ccc(-c3nc4cc(O[C@@H]5CO[C@H]6[C@@H]5OC[C@H]6O)[nH]c4cc3F)cc2)cc1  inhibition (GRK7 (Homo sapiens, UniProt Q8WTQ7); enzyme activity, inhibitor; 10 µM): -12%
CC(C)[C@H]1NC(=O)C[C@H]2/C=C/CCSSC[C@@H](NC1=O)C(=O)N[C@H](Cc1cccc3ccccc13)C(=O)NCC(=O)O2  inhibition (Cyclin-dependent kinase 3, with cyclin E1 (CDK3, Homo sapiens, UniProt Q00526); enzyme activity, inhibitor; 10 µM): -2.1%
CC(=O)N[C@@H](CCC(N)=O)C(=O)N[C@@H](CC1CCCCC1)C(=O)N[C@@H](CNC(=O)CCl)C(=O)N[C@@H](CC(C)C)C(=O)N[C@@H](Cc1ccccc1)C(=O)O  ΔG (Beta sliding clamp (Escherichia coli, UniProt P0A988); binding, isothermal titration calorimetry; pH 7.4, 37 °C): -8.9 kcal/mol
N[C@H](C(=O)N1CCCC1)C1CCN(c2nccc3c(-c4ncc(Cl)cc4Cl)cccc23)CC1  kcat (PADI2 (Homo sapiens, UniProt Q9Y2J8); enzyme activity; 3.84 µM, high-affinity site, together with: Ca2+ 1.5 mM): 0.84 s⁻¹ and 0.766 s⁻¹
C[C@H](NCc1ccc(-c2ccc(C(F)(F)F)cc2)cc1)C(N)=O  inhibition (protein kinase C, rat; enzyme activity; biochemical; 1 µM, together with: histone 370 µg/mL): 12%
CN(C)[C@H]1C[C@@]23CC[C@@]4(O2)C(=CC[C@]2(C)[C@@H](c5ccc6ccncc6c5)CC[C@H]24)C=C3[C@@H](O)[C@@H]1O  inhibition (CDK11B (Homo sapiens, UniProt P21127); ATP probe labelling, inhibitor, KiNativ profiling; 0.1 µM): -4.5%
O=C(CCc1ccc(Br)cc1)N[C@H]1CCOC1=O  agonist activity (lasR; reporter gene, agonist; Escherichia coli JLD271; 10 µM, pSC11 and pJN105L plasmids; reference: OdDHL at same concentration): 25%
CON(C(=O)c1cn(C)nc1C(F)F)C(C)Cc1c(Cl)cc(Cl)cc1Cl (stereo not shown)  reaction velocity (SDHD/SDHC/SDHB (Sus scrofa, UniProt A5GZW8+D0VWV4+Q007T0); enzyme activity, inhibitor, DCIP reduction; pig; 1 µM, together with: DCIP 5 µM): 0.000664 µM/s and 0.000572 µM/s
O=S(=O)(F)c1cccc2c1OCC2  remaining activity (Uncharacterized hydrolase SAUSA300_2518; enzyme activity, inhibitor, fluorogenic substrate; 0.1 µM): 109% and 111%
Cc1ccc(NC(=O)CCc2cccc(NC3=CC(=O)N(C4CCC(=O)NC4=O)C3=O)c2)cc1Cl (stereo not shown)  log2 fold change (Cereblon/Ikaros (Homo sapiens, UniProt Q13422+Q96SW2); degrader, quantitative proteomics, refers to: protein abundance; human regulatory T cells; 1 µM, 4 h; reference: DMSO): -1.49
O=C(NCc1cc(Br)cc(Br)c1OC(=O)c1ccccc1[N+](=O)[O-])c1ccccc1Cl  agonist activity (lasR; reporter gene, agonist; Pseudomonas aeruginosa PAO-JP2; 100 µM, plasI-LVAgfp reporter; reference: OdDHL at same concentration): 104%
CC(C)[C@@H]1NC(=O)[C@H](CC(N)=O)NC(=O)CNC(=O)[C@H](CC(N)=O)NC(=O)[C@H](C)NC(=O)[C@H](CC(=O)O)NC(=O)[C@H]([C@@H](C)O)NC(=O)[C@H](CCC(=O)O)NC(=O)CNC(=O)[C@H]([C@@H](C)O)NC(=O)[C@H](CCC(=O)O)NC(=O)[C@H](CCC(=O)O)NC(=O)[C@H](CC(=O)O)NC1=O  fluorescence polarization (KEAP1; Keap1-Nrf2 binding, inhibitor, competitive FP; 6.25 µM, 30 min, together with: Nrf2 peptide probe; lower = stronger inhibition): 0.0962 a.u. and 0.216 a.u.
CC[C@@H](C)[C@@H]1CN([C@@H](CC2CCCCC2)CN2CCC[C@H]2CN2CCNC[C@@H]2Cc2ccc3ccccc3c2)CCN1CCCC1CCCC1  remaining binding (Oprm1; radioligand binding; rat brain membranes; 500 nM, pH 7.5, 25 °C, together with: 0.87 nM [3H]DAMGO): 108 ± 3.77%
Nc1ccc(N=Nc2ccccc2)c2ccccc12  ΔTm (Tumor susceptibility gene 101 protein (Homo sapiens, UniProt Q99816); thermal stability; 800 µM): 14.6 °C
CN(C)CCCSC(=S)N1CCN(C(=O)/C=C/c2coc3ccccc3c2=O)CC1  MST response (Nucleoprotein (N, Tomato spotted wilt virus, UniProt P25999, R94A); binding, microscale thermophoresis; 15.62 µM; dose series): 843 a.u.
CC(C)C[C@@H]1NC(=O)[C@H](C(C)C)NC(=O)[C@H](CCC(=O)O)NC(=O)CNC(=O)[C@H]([C@@H](C)O)NC(=O)[C@H](CCC(=O)O)NC(=O)[C@H](CCC(=O)O)NC(=O)[C@H](CC(=O)O)NC(=O)[C@H](C(C)C)NC(=O)[C@H]([C@@H](C)O)NC(=O)CNC(=O)[C@H](CC(=O)O)NC(=O)[C@@H]2CCCN2C1=O  fluorescence polarization (KEAP1; Keap1-Nrf2 binding, inhibitor, competitive FP; 0.0977 µM, 30 min, together with: Nrf2 peptide probe; lower = stronger inhibition): 0.773 a.u. and 0.719 a.u.
Cc1ccc(OS(=O)(=O)F)c(C(=O)Nc2ccncc2)c1  remaining activity (Uncharacterized hydrolase SAUSA300_2518; enzyme activity, inhibitor, fluorogenic substrate; 50 µM): 35% and 35.2% and 36.6%
CSc1cccc(CC(=O)N[C@H]2CCOC2=O)c1  Emax (sdiA): 102%
CCCC[C@H]1CNCCN1C[C@@H]1CCCN1C[C@@H](Cc1ccc2ccccc2c1)N1CCN(CCCC2CCCC2)[C@H]([C@H](C)CC)C1  remaining binding (Oprm1; radioligand binding; rat brain membranes; 500 nM, pH 7.5, 25 °C, together with: 0.87 nM [3H]DAMGO): 107 ± 7.04%
C#CCCCCOc1ccc2c(c1)CCCN2C(=O)CCl  reactivity ratio (NCEH1 (Homo sapiens, UniProt Q6PIU2); mass spectrometry profiling; H460 cell lysate; 100 µM over 10 µM, UniProt Q6PIU2; reference: high over low concentration): 0.597

Excerpt of the above:
Cc1cc(C)cc(COc2cc3c(cc2OCc2cc(C)cc(C)c2)C2CC(O)(Cc4cn(CCOCCOCCOCCNc5ccc6c(c5)C(=O)N(C5CCC(=O)NC5=O)C6=O)nn4)CC(C)N2CC3)c1 (racemic)  degradation (Rab GDP dissociation inhibitor beta (Homo sapiens, UniProt P50395); degrader, Western blot; PC-3; 2 µM, 24 h): 8%
CCCO[C@H]1[C@H](O)[C@@H](N)[C@@H](O[C@H]2[C@H](O[C@@H]3O[C@H](CO)[C@@H](O[C@H]4O[C@@H](CN)[C@@H](O)[C@H](O)[C@H]4N)[C@H]3O)[C@@H](O)[C@H](N)C[C@@H]2N)O[C@@H]1CO  specific binding (ADRA2A (Homo sapiens, UniProt P08913); radioligand binding; 10 µM, 1% DMSO): 7%
CCC(C)C1CN(C(CC2CCCCC2)CN2CCCC2CN2CCNCC2CO)CCN1CCCC1CCCC1 (stereo not shown)  remaining binding (Oprm1; radioligand binding; rat brain membranes; 500 nM, pH 7.5, 25 °C, together with: 0.87 nM [3H]DAMGO): 105 ± 6.16%
O=C(Cc1cccc(Br)c1)N[C@H]1CCOC1=O  Emax (sdiA): 115%
